Published values from different studies.
Parts stem from different laboratories: compare values within a part only.
UniProt Q9Y6M4, sequence (whole entry, looked up): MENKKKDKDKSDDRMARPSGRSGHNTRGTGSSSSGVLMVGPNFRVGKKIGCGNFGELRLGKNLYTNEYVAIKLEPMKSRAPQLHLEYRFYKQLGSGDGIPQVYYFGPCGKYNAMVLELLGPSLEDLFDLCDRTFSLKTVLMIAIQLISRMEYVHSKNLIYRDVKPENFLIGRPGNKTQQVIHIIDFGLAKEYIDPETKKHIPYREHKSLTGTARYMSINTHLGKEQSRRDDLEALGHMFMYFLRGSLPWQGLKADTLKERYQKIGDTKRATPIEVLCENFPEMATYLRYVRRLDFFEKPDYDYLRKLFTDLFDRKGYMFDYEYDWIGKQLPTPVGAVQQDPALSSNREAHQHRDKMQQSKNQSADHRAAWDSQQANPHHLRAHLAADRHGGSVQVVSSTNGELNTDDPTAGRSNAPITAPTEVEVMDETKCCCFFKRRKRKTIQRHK
UniProt Q96RR4, sequence (whole entry, looked up): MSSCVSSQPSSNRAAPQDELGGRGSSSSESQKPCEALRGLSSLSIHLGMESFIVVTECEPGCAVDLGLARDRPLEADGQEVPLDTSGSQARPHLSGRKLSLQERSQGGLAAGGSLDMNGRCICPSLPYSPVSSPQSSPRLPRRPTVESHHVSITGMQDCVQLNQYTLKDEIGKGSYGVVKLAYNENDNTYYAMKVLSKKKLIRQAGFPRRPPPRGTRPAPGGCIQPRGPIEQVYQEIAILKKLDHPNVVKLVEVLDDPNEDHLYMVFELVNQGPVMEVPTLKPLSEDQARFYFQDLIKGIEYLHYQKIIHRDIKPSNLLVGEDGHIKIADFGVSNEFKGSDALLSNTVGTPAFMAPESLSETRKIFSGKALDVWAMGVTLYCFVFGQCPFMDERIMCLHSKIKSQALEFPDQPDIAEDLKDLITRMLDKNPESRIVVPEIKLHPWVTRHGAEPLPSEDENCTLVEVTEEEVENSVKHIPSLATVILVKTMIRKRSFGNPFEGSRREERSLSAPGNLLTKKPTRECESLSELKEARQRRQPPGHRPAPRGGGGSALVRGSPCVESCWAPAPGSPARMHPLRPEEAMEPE
UniProt Q8N568, sequence (whole entry, looked up): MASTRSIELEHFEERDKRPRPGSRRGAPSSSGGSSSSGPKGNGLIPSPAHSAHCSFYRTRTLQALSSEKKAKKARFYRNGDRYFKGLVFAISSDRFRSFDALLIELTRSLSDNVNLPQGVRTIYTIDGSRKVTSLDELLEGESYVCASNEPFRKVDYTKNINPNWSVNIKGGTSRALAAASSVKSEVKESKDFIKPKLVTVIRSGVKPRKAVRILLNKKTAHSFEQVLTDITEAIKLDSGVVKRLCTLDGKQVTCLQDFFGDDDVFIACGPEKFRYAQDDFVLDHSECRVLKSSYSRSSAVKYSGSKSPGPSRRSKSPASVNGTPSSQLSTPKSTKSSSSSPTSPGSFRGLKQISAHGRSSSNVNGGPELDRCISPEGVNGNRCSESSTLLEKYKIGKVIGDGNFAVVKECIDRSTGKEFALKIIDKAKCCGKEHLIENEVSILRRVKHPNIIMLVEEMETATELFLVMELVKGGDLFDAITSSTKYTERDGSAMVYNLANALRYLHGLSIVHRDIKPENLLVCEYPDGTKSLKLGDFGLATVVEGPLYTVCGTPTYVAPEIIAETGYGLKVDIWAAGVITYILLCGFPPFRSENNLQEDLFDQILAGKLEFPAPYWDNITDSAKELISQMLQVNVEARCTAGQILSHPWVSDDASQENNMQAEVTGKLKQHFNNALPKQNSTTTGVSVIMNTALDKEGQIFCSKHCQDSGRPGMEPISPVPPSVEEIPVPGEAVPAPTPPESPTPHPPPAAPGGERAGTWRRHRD
UniProt O94921, sequence (whole entry, looked up): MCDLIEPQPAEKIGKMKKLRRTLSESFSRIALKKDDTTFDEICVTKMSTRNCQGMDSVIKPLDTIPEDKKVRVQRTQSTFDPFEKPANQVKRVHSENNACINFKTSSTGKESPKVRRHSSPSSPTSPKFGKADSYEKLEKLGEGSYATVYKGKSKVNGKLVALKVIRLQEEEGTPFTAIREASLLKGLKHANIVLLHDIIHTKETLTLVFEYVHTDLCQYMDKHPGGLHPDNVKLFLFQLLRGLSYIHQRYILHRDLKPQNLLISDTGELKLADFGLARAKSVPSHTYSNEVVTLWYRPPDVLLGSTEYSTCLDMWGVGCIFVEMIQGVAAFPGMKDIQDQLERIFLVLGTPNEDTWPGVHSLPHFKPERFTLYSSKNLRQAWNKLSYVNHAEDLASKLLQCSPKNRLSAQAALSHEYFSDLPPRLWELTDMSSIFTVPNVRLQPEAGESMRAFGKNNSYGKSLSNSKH
UniProt Q9HC98, sequence (whole entry, looked up): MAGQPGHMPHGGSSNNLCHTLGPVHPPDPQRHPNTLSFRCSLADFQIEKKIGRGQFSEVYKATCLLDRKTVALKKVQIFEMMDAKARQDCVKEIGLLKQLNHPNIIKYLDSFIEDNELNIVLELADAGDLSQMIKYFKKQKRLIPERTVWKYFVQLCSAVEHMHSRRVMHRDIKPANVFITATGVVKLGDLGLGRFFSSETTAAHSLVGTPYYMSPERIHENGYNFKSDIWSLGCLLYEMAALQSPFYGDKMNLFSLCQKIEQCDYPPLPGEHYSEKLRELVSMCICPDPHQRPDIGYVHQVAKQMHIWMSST
UniProt P29323, sequence (whole entry, looked up): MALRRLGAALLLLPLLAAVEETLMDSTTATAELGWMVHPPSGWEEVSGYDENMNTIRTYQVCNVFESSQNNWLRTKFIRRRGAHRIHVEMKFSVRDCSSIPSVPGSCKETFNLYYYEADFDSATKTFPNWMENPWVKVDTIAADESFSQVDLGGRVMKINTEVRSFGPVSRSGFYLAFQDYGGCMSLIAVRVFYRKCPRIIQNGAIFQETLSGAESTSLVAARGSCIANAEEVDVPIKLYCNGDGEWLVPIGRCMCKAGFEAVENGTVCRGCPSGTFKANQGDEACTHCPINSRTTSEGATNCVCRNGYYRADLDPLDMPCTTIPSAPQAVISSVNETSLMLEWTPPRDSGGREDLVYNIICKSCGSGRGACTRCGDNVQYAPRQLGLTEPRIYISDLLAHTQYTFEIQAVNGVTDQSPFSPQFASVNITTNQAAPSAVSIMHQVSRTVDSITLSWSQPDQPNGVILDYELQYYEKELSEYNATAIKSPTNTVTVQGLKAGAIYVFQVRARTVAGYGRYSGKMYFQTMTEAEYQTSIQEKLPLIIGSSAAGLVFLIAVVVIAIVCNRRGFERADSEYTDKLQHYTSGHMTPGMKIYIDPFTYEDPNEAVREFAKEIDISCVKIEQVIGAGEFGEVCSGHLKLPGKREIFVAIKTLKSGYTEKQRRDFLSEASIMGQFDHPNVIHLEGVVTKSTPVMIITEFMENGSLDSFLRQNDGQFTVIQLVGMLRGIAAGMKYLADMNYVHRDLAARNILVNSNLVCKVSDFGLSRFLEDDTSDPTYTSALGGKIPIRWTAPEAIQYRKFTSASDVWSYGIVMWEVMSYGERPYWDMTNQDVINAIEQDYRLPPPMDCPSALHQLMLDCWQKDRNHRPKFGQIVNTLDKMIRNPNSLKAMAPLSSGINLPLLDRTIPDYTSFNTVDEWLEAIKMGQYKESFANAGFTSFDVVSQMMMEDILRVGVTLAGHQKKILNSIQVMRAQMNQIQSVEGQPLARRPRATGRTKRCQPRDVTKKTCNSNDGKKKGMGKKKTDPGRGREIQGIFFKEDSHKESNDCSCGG
UniProt P78356, sequence (whole entry, looked up): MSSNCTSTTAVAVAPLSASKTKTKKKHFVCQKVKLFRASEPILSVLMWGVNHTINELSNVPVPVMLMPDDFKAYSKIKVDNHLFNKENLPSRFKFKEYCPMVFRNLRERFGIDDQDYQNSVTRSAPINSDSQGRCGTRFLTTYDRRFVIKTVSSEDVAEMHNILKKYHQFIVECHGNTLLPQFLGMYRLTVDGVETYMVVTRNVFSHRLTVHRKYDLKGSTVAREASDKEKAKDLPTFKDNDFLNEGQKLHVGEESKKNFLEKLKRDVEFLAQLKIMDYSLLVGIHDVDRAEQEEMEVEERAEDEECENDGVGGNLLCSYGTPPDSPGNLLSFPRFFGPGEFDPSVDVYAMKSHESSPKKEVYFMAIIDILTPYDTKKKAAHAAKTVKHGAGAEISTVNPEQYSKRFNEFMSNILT
UniProt P28482, sequence (whole entry, looked up): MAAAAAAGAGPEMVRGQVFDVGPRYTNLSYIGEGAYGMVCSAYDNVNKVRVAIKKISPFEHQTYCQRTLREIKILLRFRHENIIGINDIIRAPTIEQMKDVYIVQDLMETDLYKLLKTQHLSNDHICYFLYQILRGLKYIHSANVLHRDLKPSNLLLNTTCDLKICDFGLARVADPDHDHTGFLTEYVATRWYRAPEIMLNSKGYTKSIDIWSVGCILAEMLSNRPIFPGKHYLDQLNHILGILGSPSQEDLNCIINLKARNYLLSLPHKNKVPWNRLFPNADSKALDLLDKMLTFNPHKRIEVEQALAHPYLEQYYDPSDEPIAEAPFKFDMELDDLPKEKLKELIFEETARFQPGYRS

Set 1 — species: human; medium: microsomes or S9; concentration: 2 µM; time: 0.5 h
Structure (SMILES)	remaining compound [%]
c1ccc(-n2ncc3c2N=C(N2CCC(n4ccnc4)CC2)NC3)cc1	89.6
c1ccc(-c2cn3c4ccccc4n(CCN4CCOCC4)c3n2)cc1	11.6
CCS(=O)(=O)Nc1cccc(-c2cc(=O)n(-c3ccc(Cl)c(C#N)c3)nc2C(C)C)c1	> 99.9
Cc1c(C(=O)O)[nH]c(S(=O)(=O)NCCO)c1C	49.1
O=c1ccc(-c2noc(Cc3c(F)cccc3Cl)n2)c[nH]1	71.3
CC(C)n1nc(CNc2ccc(Cl)cc2)[nH]c1=O	67.6
O=C(C1=Cc2ccccc2OC=C1)N1CCCCC1c1ccccn1 (stereo not drawn)	52.8
O=C(Nc1nncn1-c1ccccc1)c1cnc2ccccn12	91.8
c1ccc(-c2cc(CNCC3COCCO3)c3nnnn3c2)cc1 (stereo not drawn)	48.1

Set 2 — effect on: enzyme activity; mode: inhibitor; concentration: 0.5 µM; relative to: control
Target: Mitogen-activated protein kinase 11 (MAPK11, Homo sapiens, UniProt Q15759)
UniProt Q15759, sequence (whole entry, looked up): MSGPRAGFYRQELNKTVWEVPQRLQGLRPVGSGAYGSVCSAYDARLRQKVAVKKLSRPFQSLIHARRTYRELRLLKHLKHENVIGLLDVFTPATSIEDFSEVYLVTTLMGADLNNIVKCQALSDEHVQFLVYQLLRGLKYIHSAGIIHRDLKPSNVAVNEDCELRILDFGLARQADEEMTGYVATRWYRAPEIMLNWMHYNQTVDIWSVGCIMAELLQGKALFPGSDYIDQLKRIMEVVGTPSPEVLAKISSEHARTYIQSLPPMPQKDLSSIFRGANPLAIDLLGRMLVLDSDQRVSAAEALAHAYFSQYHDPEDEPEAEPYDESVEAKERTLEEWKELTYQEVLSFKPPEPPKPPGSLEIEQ
SMILES	remaining activity
Oc1ccc(-c2nc(-c3ccncc3)c(-c3ccc(F)cc3)[nH]2)cc1	32.8%
Nc1[nH]nc2nc3ccccc3nc12	93.8%
CN(C)c1ccc(C=C2C(=O)Nc3ccccc32)cc1	93.5%
COc1cc2nccc(Oc3ccc(NC(=S)NC(=O)c4ccccc4C)cc3)c2cc1OC	89.3%
CO[C@H]1C[C@@H]2CC[C@@H](C)[C@@](O)(O2)C(=O)C(=O)N2CCCC[C@H]2C(=O)O[C@H]([C@H](C)C[C@@H]2CC[C@@H](O)[C@H](OC)C2)CC(=O)[C@H](C)/C=C(\C)[C@@H](O)[C@@H](OC)C(=O)[C@H](C)C[C@H](C)/C=C/C=C/C=C/1C	113%
Cc1ccc(NC(=O)c2ccc(CN3CCN(C)CC3)cc2)cc1Nc1nc(-c2cccnc2)cs1	102%
Nc1ccc2ncnc(NCCc3ccc(Oc4ccccc4)cc3)c2c1	98.1%
COc1cc2ncnc(Nc3ccc(F)c(Cl)c3)c2cc1OCCCN1CCOCC1	95.1%
CC(C)[C@H](CO)Nc1nc(Nc2cc(N)cc(Cl)c2)c2ncn(C(C)C)c2n1	96.3%
O=C1NC(=O)C(c2cn(CCCO)c3ncccc23)=C1c1cnccn1	105%
O=C(Nc1cccc(Nc2cc(Nc3cccc(C(F)(F)F)c3)ncn2)c1)C1CC1	97.2%
Nc1ncnc2n[nH]c(Nc3ccc(F)cc3)c12	108%
O=c1c2ccccc2[nH]c(=S)n1CCN1CCC(=C(c2ccc(F)cc2)c2ccc(F)cc2)CC1	99.3%

Set 3 — effect on: cell-free assay; technique: competition with immobilised ligand; concentration: 1 µM
Structure (SMILES): CC(=O)C1=C(C)N(c2cccc(C(F)(F)F)c2)C(=O)N[C@@H]1c1ccc(C#N)nc1
target	remaining binding
CAMKK2 (Homo sapiens, UniProt Q96RR4)	100%
EPHB2 (Homo sapiens, UniProt P29323)	100%
PIP4K2B (Homo sapiens, UniProt P78356)	52.8%
CSNK1G3 (Homo sapiens, UniProt Q9Y6M4)	100%
CDK2 (Homo sapiens, UniProt P24941)	100%
CDK14 (Homo sapiens, UniProt O94921)	91.7%
MAPK1 (Homo sapiens, UniProt P28482)	98.9%
NEK6 (Homo sapiens, UniProt Q9HC98)	100%
DCLK2 (Homo sapiens, UniProt Q8N568)	88%

Set 4 — cell line: HuT78; concentration: 2 µM; time: 48 h; relative to: untreated
SMILES	viability
Oc1ccc2ccccc2c1SSc1c(O)ccc2ccccc12	102%
CC(C)(C)c1nc(-c2cccc(NS(=O)(=O)c3c(F)cccc3F)c2F)c(-c2ccnc(N)n2)s1	77.3%
C=CC(=O)Nc1cccc(Nc2nc(Nc3ccc(Oc4ccnc(C(=O)NC)c4)cc3)ncc2F)c1	92.3%
COc1ccc(Cl)cc1NC(=O)Nc1cc(C)nc2ccccc12	110%
CCCS(=O)(=O)Nc1ccc(F)c(C(=O)c2c[nH]c3ncc(-c4ccc(Cl)cc4)cc23)c1F	124%
CC(C)n1nc(-c2ccc3oc(N)nc3c2)c2c(N)ncnc21	20.1%
O=C(Cc1ccc(-c2ccc(OCCN3CCOCC3)cc2)cn1)NCc1ccccc1	20.5%
CCc1cc(Nc2nccc(-c3c(-c4ccc(OC)c(C(=O)Nc5c(F)cccc5F)c4)nc4ccccn34)n2)c(OC)cc1N1CCC(N2CCN(S(C)(=O)=O)CC2)CC1	128%
